# Results collected from several papers.
# A part holds a random share of what one study measured. Values joined by “and” are separate records of one study, mostly repeats; a detail may differ. Changes are numbered by the printed parent chain.
# Sequence of UniProt O75417 (whole entry, unmodified, looked up): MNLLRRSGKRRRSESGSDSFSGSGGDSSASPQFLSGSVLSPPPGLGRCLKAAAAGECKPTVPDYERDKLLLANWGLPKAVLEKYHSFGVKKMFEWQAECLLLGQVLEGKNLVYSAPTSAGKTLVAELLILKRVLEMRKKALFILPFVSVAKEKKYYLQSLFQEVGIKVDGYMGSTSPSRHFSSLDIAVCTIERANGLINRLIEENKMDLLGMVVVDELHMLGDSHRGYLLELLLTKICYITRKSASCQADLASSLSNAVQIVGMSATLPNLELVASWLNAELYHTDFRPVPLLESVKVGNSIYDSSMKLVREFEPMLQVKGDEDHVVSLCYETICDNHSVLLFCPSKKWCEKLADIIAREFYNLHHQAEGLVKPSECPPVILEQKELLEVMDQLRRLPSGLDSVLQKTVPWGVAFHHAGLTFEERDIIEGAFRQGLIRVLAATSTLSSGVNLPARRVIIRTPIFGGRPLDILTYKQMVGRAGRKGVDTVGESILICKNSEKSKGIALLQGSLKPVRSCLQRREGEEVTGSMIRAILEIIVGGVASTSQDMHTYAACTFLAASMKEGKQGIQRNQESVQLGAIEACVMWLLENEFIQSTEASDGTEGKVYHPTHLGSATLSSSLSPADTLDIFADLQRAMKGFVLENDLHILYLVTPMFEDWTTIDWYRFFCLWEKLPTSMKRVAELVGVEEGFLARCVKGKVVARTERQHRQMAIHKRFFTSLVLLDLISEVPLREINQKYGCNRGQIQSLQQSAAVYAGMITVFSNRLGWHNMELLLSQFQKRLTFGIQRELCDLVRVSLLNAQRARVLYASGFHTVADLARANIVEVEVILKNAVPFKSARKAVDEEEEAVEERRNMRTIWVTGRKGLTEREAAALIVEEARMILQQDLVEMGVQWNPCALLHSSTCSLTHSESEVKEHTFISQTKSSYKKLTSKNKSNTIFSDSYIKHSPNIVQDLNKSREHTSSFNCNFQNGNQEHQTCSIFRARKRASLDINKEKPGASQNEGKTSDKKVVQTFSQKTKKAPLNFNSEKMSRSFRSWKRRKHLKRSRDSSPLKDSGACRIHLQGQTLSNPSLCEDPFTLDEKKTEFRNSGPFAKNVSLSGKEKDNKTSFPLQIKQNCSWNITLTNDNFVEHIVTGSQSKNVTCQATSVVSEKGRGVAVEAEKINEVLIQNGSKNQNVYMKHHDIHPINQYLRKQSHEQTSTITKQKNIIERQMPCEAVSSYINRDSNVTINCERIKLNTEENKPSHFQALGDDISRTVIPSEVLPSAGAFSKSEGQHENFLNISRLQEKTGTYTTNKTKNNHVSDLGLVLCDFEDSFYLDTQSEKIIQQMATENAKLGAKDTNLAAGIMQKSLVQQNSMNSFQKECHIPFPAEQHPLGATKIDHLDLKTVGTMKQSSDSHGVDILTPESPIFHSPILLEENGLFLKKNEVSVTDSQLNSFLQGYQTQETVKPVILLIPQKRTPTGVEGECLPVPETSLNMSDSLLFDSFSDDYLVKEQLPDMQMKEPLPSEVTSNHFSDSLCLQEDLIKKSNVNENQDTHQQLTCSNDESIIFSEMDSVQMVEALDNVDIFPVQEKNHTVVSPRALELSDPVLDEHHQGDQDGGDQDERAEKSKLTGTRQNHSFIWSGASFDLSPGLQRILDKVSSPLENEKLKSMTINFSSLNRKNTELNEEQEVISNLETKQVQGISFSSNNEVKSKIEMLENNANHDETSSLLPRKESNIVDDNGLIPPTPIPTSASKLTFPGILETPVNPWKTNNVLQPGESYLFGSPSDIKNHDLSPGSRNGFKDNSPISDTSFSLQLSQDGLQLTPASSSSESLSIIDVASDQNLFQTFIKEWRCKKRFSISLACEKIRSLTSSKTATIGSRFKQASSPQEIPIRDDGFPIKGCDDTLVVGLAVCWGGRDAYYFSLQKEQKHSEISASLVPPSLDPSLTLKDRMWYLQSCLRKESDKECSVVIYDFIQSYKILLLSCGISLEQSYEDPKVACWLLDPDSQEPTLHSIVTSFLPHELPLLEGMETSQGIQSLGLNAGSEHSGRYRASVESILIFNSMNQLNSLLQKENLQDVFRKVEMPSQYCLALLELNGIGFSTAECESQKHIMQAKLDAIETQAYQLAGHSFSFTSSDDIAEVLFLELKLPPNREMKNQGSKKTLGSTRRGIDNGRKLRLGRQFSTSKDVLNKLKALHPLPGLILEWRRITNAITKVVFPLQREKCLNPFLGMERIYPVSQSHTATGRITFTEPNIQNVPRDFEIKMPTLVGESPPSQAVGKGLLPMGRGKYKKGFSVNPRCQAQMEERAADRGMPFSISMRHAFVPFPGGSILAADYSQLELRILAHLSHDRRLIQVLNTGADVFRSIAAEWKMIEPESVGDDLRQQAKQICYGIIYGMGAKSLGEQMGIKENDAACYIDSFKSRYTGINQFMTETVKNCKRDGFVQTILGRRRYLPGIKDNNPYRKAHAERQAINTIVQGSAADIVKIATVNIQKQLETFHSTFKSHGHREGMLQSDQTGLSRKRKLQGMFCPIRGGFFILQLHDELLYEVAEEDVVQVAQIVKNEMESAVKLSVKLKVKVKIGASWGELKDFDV
# Sequence of UniProt Q16539 (whole entry, looked up): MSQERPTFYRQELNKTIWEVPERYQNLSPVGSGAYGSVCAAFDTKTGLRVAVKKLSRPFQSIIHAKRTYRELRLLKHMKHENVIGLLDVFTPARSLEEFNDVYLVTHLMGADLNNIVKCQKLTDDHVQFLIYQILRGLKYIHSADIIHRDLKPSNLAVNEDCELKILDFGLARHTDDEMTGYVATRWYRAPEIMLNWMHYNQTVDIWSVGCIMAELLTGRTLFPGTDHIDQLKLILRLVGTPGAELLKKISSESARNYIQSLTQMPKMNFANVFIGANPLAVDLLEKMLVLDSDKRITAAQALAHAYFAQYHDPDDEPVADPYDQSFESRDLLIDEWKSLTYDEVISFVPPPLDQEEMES
# Sequence of UniProt Q86UX6 (whole entry, looked up): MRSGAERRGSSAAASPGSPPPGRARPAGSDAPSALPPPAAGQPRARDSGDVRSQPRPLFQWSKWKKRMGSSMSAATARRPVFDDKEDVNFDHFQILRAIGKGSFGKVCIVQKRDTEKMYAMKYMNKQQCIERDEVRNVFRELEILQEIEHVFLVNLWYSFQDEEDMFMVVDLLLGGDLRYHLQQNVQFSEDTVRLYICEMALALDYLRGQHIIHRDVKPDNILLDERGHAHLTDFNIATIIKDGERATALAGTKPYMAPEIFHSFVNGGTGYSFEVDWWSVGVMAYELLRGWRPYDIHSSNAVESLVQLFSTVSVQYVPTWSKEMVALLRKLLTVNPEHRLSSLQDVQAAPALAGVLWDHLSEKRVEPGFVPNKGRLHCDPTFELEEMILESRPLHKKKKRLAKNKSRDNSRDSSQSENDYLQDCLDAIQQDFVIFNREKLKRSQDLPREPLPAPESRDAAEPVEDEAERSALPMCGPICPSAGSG
# Sequence of UniProt Q86YV6 (whole entry, looked up): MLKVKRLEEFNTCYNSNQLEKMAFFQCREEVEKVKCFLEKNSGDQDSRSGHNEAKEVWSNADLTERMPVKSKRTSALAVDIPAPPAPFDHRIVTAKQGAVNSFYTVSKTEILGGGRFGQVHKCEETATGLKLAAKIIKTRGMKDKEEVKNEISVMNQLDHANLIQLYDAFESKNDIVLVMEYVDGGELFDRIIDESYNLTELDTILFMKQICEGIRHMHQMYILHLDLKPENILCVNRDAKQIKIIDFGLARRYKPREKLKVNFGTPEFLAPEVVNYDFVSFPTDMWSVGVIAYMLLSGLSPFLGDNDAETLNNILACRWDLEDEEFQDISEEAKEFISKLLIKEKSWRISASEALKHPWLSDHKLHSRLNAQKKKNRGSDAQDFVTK
# Sequence of UniProt Q52WX2 (whole entry, looked up): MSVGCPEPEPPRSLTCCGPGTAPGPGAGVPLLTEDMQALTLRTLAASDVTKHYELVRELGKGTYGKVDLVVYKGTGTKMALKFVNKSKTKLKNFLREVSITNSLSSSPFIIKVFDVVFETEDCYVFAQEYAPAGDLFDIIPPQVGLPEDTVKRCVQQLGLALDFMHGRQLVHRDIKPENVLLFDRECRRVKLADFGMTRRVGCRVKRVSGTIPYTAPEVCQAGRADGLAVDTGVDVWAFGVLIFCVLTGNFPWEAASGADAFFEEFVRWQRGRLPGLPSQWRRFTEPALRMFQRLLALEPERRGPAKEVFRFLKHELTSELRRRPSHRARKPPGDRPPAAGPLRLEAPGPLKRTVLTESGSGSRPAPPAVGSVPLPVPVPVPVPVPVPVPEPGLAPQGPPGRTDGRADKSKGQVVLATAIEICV
# Sequence of UniProt P11802 (whole entry, looked up): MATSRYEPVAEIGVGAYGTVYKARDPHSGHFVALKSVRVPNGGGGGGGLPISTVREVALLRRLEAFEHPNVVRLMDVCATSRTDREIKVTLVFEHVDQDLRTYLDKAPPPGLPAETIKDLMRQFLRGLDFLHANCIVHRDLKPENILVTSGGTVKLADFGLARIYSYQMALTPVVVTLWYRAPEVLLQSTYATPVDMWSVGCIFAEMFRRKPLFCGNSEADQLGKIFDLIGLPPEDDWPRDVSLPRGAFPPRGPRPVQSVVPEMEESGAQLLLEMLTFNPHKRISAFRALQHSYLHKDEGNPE

# Set 1 — target: tungstate, free oxyanion; technique: microfluidic competitive inhibition; matrix: in vitro, cell-free expressed; tested at: not given; direction: lower = stronger binding
# Setting: derived from inhibition constants, unchanged parent 2230 nM
# Starting sequence: PafA, mature enzyme, eGFP fusion (Elizabethkingia meningoseptica, UniProt Q9KJX5); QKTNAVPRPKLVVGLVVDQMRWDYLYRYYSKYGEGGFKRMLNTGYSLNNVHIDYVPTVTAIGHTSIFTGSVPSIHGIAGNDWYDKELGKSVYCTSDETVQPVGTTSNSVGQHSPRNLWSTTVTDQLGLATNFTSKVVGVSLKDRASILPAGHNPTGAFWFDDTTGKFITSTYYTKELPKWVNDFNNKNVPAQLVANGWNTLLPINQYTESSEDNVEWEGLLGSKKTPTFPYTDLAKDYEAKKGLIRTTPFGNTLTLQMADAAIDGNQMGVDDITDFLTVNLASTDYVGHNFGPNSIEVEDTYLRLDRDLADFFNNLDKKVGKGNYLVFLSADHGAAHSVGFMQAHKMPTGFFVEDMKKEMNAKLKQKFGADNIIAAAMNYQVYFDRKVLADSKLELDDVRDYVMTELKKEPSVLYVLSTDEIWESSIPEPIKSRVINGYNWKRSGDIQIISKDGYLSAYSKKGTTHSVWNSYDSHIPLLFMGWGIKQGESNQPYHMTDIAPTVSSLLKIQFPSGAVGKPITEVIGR
Change,oxyanion analog dissociation constant [µM]
G340A,1.97
N314V,2.17
D237V,1.3
D453V,1.3
I520V,2.39
P501V,2.29
F37V,1.73
I422V,2.21

# Set 2 — technique: competition with immobilised ligand; tested at: 1 µM
# Compound: Cn1cncc1[C@](O)(COc1ccc(C#N)cc1-c1ccc(OC(F)(F)F)cc1)c1ccc(C#N)cc1
target,effect on,remaining binding [%]
"Non-receptor tyrosine-protein kinase TYK2, JH2 (TYK2, Homo sapiens, UniProt P29597)",cell-free assay,100
"Myosin-IIIb (MYO3B, Homo sapiens, UniProt Q8WXR4)",binding,71
"Ribosomal protein S6 kinase alpha-6, C-terminal kinase domain (RPS6KA6, Homo sapiens, UniProt Q9UK32)",cell-free assay,93
"RIPK4 (Homo sapiens, UniProt P57078)",cell-free assay,100
"MINK1 (Homo sapiens, UniProt Q8N4C8)",cell-free assay,94
"VRK2 (Homo sapiens, UniProt Q86Y07)",cell-free assay,70
"MYLK4 (Homo sapiens, UniProt Q86YV6)",cell-free assay,93
"MAP2K3 (Homo sapiens, UniProt P46734)",cell-free assay,78
"ERBB4 (Homo sapiens, UniProt Q15303)",cell-free assay,81
"RIOK3 (Homo sapiens, UniProt O14730)",cell-free assay,95
"BTK (Homo sapiens, UniProt Q06187)",cell-free assay,92
"STK32C (Homo sapiens, UniProt Q86UX6)",cell-free assay,84
"MAPK14 (Homo sapiens, UniProt Q16539)",cell-free assay,100
"CHUK (Homo sapiens, UniProt O15111)",cell-free assay,86
"Ribosomal protein S6 kinase alpha-1, N-terminal kinase domain (RPS6KA1, Homo sapiens, UniProt Q15418)",cell-free assay,89
"Cyclin-dependent kinase 4, with cyclin D3 (CDK4, Homo sapiens, UniProt P11802)",cell-free assay,100
"SBK1 (Homo sapiens, UniProt Q52WX2)",cell-free assay,100

# Set 3 — effect on: RNA clamping; technique: fluorescence polarization; tested at: concentration not given; setting: mean of two replicates; with: FAM-labelled poly r(AG)8 RNA
# Target: Eukaryotic initiation factor 4A-III (Homo sapiens, UniProt P38919)
# Sequence of UniProt P38919 (whole entry, looked up): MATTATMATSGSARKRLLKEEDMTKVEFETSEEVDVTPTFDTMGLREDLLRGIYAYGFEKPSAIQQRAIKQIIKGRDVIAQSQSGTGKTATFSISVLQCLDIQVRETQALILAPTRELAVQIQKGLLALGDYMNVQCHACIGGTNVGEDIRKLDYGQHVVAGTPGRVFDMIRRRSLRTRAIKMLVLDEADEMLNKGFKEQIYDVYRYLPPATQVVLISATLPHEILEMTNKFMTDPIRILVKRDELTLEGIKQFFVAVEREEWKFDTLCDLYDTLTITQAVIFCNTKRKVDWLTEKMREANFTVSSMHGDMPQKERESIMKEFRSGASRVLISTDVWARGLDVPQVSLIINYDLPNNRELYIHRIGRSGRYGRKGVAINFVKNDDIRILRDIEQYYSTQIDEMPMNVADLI
SMILES,fluorescence polarization change
COC(=O)[C@@H]1[C@@H](c2ccccc2)[C@]2(c3ccc(OC)cc3)Oc3cc(OC)cc(OC)c3[C@@]23NC(C(C)(C)C)=N[C@@]13O,28.8 mP
COC(=O)[C@@H]1[C@@H](c2ccccc2)[C@]2(c3ccc(OC)cc3)Oc3cc(OC)cc(OC)c3[C@@]23OC(c2ccc(F)cc2)=N[C@@]13O,17.9 mP
COC(=O)Cc1nc2c(c(=O)[nH]1)[C@@H](c1ccccc1)[C@]1(c3ccc(OC)cc3)Oc3cc(OC)cc(OC)c3[C@]21O,20.9 mP

# Set 4 — cell line: A-375; tested at: 100 µM; time: 36 h
Compound,viability
NC(=O)C[S+]([O-])C(c1ccccc1)c1ccccc1 (centres unmarked),102%
C[C@]12CC[C@H]3[C@@H](CC[C@@]45O[C@@H]4C(O)=C(C#N)C[C@]35C)[C@@H]1CC[C@@H]2O,44.3%
C[C@]12CCC(=O)C=C1CC[C@@H]1[C@@H]2CC[C@@]2(C)[C@H]1CC[C@]2(C)O,91.8%

# Mixed results
Compound,tested on,assay,test system,conditions,scale,quantity,result
O=C1NC(=O)N(c2ccccc2)C(=O)C1=CNc1ccc(F)cc1,His6 tag,AlphaScreen counter screen,,concentration not given,,inhibition,3.05%
O=C(Nc1ccc2[nH]ncc2c1)c1cc(N2CCNCC2)c(F)cc1F,,,"human, microsomes or S9","2 µM, 0.5 h",,remaining compound,69.8%
C=CCN1C(=O)C(=Cc2ccc(OCC(=O)O)cc2)C(=O)N=C1O,His6 tag,AlphaScreen counter screen,,concentration not given,,inhibition,3%
CC(C)c1cccc(C(C)C)c1O,Plasmodium berghei,inhibitor,"Huh-7, GFP-expressing, liver stage","10 µM, 24 h",baseline: untreated control,infection rate,93.5%
C[C@]12CC[C@H](O)C[C@@H]1CC[C@@H]1[C@@H]2CC[C@]2(C)C(=O)CC[C@@H]12,"DNA polymerase theta, ATPase domain (POLQ, Homo sapiens, UniProt O75417)","enzyme activity, inhibitor",,77 µM,baseline: untreated,remaining activity,80.4% and 99.6%
CCCNS(=O)(=O)c1ccc(OCC(=O)N2CCN(Cc3ccc4c(c3)OCO4)CC2)c(C)c1,,,"human, microsomes or S9","2 µM, 0.5 h",,remaining compound,16%
NCCc1cc(O)c(O)cc1O,Plasmodium berghei,inhibitor,"Huh-7, GFP-expressing, liver stage","10 µM, 24 h",baseline: untreated control,infection rate,41.7%
